Measurements from different studies.
Each numbered part is a random draw from the data of one study; scales do not carry over between parts. “And” joins repeats or separate records; there may be more than shown.
Sequence of UniProt O15111 (whole entry, looked up): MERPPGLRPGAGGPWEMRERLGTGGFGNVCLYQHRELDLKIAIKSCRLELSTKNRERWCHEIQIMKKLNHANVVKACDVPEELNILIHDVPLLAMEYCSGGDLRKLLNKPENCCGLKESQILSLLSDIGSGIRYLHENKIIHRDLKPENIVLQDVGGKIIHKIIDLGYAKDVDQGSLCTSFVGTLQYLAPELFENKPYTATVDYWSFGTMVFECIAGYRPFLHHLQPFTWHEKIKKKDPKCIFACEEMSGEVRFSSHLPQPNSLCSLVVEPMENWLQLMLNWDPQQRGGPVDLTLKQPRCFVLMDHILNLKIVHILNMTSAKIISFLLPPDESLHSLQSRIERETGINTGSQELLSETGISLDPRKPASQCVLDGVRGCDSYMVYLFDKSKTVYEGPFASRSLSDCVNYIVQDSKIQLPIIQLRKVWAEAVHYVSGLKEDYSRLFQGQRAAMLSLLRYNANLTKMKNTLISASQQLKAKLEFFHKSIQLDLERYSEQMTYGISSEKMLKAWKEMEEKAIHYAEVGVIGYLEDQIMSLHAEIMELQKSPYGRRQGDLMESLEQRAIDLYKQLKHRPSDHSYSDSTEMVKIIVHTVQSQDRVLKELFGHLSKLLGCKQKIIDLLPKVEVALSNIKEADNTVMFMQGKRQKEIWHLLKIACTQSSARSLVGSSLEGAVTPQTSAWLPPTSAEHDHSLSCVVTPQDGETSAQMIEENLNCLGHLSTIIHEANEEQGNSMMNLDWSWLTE
Sequence of UniProt Q9Y6M4 (whole entry, looked up): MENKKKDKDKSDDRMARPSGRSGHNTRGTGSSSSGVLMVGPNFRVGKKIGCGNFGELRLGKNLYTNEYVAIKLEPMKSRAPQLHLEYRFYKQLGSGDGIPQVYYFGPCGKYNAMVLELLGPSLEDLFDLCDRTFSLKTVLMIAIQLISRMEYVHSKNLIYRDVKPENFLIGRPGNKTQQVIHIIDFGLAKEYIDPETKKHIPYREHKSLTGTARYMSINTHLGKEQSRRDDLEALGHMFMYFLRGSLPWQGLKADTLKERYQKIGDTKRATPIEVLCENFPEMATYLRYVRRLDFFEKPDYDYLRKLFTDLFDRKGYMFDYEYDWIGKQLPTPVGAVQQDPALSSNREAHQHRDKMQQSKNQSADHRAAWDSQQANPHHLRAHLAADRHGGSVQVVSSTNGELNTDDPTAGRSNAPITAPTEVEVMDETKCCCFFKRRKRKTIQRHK
Sequence of UniProt Q16288 (whole entry, looked up): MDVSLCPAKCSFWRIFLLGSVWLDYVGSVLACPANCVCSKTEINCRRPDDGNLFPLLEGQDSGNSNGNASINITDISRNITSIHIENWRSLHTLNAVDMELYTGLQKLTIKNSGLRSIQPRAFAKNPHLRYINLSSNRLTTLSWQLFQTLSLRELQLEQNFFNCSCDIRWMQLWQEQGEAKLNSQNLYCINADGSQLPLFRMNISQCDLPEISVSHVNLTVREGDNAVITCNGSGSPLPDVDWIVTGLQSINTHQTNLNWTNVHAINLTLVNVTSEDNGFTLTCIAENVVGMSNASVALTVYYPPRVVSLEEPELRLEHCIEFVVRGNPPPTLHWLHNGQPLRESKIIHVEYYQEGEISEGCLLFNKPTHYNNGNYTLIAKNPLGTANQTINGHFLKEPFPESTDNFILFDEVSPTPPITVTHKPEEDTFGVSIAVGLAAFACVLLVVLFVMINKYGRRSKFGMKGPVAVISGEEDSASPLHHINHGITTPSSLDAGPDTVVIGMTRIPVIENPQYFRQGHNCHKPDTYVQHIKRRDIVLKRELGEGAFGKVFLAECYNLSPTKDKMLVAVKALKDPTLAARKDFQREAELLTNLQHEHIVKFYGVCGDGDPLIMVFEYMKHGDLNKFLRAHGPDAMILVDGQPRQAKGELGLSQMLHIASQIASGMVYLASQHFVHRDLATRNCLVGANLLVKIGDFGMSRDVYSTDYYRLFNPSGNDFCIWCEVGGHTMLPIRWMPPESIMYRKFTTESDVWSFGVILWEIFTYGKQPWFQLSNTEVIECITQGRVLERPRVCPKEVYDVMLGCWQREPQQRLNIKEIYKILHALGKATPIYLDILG
Sequence of UniProt P11802 (whole entry, looked up): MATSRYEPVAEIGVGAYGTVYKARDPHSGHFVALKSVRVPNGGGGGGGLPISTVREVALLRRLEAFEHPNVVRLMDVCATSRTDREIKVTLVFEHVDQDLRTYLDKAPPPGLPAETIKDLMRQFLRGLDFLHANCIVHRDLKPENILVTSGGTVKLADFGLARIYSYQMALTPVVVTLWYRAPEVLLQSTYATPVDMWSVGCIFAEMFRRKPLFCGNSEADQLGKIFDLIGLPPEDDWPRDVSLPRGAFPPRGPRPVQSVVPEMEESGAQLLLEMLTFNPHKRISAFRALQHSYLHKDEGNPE
Sequence of UniProt Q9UF33 (whole entry, looked up): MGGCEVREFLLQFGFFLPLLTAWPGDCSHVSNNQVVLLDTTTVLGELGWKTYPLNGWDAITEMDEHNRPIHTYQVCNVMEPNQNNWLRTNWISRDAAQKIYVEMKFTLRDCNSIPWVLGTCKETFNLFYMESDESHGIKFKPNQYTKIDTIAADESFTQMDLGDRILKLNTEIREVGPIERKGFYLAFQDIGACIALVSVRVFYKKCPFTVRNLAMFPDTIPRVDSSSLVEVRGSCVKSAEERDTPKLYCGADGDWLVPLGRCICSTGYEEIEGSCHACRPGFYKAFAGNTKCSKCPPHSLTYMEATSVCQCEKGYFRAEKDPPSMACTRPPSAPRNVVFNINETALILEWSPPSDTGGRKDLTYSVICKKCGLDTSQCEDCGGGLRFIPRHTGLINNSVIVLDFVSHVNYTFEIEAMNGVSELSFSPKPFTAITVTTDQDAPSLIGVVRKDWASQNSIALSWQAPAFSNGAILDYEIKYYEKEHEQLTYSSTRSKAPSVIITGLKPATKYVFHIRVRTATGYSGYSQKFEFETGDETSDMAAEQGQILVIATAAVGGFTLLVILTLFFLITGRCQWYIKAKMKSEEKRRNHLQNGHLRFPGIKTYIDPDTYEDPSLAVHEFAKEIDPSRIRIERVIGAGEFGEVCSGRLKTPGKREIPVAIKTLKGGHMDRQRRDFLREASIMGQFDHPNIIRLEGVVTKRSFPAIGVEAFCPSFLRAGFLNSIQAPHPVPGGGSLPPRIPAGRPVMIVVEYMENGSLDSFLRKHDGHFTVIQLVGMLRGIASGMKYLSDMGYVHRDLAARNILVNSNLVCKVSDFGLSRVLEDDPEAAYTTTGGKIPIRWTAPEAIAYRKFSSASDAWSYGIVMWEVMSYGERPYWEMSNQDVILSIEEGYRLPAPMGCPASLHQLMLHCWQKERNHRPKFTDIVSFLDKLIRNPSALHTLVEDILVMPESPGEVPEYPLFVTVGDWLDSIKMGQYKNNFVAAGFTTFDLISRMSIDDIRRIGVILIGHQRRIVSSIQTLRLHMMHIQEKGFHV
Sequence of UniProt Q9HC98 (whole entry, looked up): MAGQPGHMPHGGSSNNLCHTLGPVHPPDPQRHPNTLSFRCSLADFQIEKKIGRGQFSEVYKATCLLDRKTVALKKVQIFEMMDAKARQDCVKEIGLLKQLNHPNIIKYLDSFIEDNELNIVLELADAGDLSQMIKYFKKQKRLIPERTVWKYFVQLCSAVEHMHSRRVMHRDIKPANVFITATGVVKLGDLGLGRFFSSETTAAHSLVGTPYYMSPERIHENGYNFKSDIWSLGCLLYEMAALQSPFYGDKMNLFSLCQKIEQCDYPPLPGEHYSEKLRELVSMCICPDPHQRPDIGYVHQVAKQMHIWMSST
Sequence of UniProt P27361 (whole entry, looked up): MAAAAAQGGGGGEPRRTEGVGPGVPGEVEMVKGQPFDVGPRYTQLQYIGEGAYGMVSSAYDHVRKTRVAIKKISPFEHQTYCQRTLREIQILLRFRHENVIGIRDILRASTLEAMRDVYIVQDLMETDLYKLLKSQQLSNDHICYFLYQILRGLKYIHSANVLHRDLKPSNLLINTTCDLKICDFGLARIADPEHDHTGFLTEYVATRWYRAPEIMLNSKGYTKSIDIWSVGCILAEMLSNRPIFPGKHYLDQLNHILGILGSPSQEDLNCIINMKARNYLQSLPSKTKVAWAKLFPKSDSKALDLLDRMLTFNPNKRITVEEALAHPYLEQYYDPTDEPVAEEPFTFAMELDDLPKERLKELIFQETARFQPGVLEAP
Sequence of UniProt P22607 (whole entry, looked up): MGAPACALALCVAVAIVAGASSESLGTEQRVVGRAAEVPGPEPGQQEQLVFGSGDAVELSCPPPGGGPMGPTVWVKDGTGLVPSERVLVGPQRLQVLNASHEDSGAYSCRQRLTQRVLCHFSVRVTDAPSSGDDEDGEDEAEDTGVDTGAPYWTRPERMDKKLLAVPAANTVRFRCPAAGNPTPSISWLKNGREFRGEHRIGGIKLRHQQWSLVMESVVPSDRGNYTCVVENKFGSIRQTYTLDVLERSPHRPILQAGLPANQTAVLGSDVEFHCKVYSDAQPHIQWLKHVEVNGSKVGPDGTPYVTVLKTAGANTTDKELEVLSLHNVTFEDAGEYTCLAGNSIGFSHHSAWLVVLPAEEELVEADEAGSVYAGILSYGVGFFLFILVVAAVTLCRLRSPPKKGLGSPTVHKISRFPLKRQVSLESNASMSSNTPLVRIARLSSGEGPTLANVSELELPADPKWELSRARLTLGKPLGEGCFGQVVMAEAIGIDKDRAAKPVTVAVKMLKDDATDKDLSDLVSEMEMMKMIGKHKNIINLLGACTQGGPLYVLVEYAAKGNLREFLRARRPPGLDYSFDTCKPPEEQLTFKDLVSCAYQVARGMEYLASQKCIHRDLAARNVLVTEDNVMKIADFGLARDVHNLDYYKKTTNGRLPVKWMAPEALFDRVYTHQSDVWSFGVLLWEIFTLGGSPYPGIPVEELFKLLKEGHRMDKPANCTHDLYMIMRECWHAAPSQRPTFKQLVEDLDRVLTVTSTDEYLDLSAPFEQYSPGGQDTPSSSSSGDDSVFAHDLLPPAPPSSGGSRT

Study 1 — concentration: 5 µM
Compound: O=C(Nc1cnn(-c2csc(C(=O)NC3COC3)c2)c1)Nc1ccccc1Cl
target | test | scale | remaining activity
Serine/threonine-protein kinase Sgk3 (SGK3, Homo sapiens, UniProt Q96BR1) | enzyme activity | reference: untreated control | 86.5%
Mitogen-activated protein kinase 12 (MAPK12, Homo sapiens, UniProt P53778) | enzyme activity | reference: untreated control | 94.5%
Protein kinase C beta type, isoform beta-II (PRKCB, Homo sapiens, UniProt P05771) | kinase activity, kinase panel profiling |  | 103%
Inhibitor of nuclear factor kappa-B kinase subunit alpha (CHUK, Homo sapiens, UniProt O15111) | enzyme activity | reference: untreated control | 144% and 167%
Cyclin-dependent kinase 2, with cyclin A1 (CDK2, Homo sapiens, UniProt P24941) | enzyme activity, inhibitor |  | 106%
Mitogen-activated protein kinase kinase kinase kinase 3 (MAP4K3, Homo sapiens, UniProt Q8IVH8) | enzyme activity, inhibitor |  | 97.5%
Serine/threonine-protein kinase TBK1 (TBK1, Homo sapiens, UniProt Q9UHD2) | enzyme activity | reference: untreated control | 99.5%
NT-3 growth factor receptor (NTRK3, Homo sapiens, UniProt Q16288) | enzyme activity | reference: untreated control | 64%
Mitogen-activated protein kinase kinase kinase 6 (MAP3K6, Homo sapiens, UniProt O95382) | enzyme activity, inhibitor |  | 98.8%
Cyclin-dependent kinase 18, with cyclin Y (CDK18, Homo sapiens, UniProt Q07002) | enzyme activity | reference: untreated control | 98.8%
Myotonin-protein kinase (DMPK, Homo sapiens, UniProt Q09013) | enzyme activity | reference: untreated control | 101%
Ephrin type-A receptor 6 (EPHA6, Homo sapiens, UniProt Q9UF33) | enzyme activity | reference: untreated control | 99%
NUAK family SNF1-like kinase 1 (NUAK1, Homo sapiens, UniProt O60285) | enzyme activity | reference: untreated control | 97.7%

Study 2 — technique: Incucyte 3D growth; concentration: 30 µM; reading: higher = more growth
SMILES: CC(C)(C(=O)O)[C@H](NC(=O)Cc1cccc(I)c1)c1ccc2oc(=O)[nH]c2c1
cell line | conditions | spheroid area
NCI-H358 | 186 h | 7.87e+06 a.u. and 6.73e+06 a.u. and 7.12e+06 a.u. and 7.25e+06 a.u. and 7.38e+06 a.u.
NCI-H358 | 252 h | 8.97e+06 a.u. and 9.76e+06 a.u. and 1.25e+07 a.u. and 7.69e+06 a.u. and 8.8e+06 a.u.
MEL-JUSO | 330.52 h | 3.04e+07 a.u. and 4.02e+07 a.u. and 4.85e+07 a.u. and 2.72e+07 a.u. and 3.43e+07 a.u. and 4.12e+07 a.u.
KP-4 | 192 h | 2.99e+07 a.u. and 3.06e+07 a.u. and 4.31e+07 a.u. and 2.97e+07 a.u. and 1.77e+07 a.u. and 3.42e+07 a.u.
MEL-JUSO | 372.52 h | 5.97e+07 a.u. and 4.63e+07 a.u. and 4.15e+07 a.u. and 4.06e+07 a.u. and 3.32e+07 a.u. and 4.81e+07 a.u.
IPC-298 | 78 h | 3.14e+07 a.u. and 2.45e+07 a.u. and 3e+07 a.u. and 3.13e+07 a.u. and 2.77e+07 a.u. and 2.97e+07 a.u.
MEL-JUSO | 6.52 h | 1.27e+07 a.u. and 7.36e+06 a.u. and 8.49e+06 a.u. and 8.84e+06 a.u. and 9.44e+06 a.u. and 8.72e+06 a.u.

Study 3 — SMILES: O=c1nc(-c2ccccn2)sc2ccccc12; concentration: 1 µM
target | test | remaining binding [%]
Serine/threonine-protein kinase RIO3 (RIOK3, Homo sapiens, UniProt O14730) | binding, competition with immobilised ligand | 99
Leucine-rich repeat serine/threonine-protein kinase 2 (LRRK2, Homo sapiens, UniProt Q5S007) | binding, competition with immobilised ligand | 97
Tyrosine-protein kinase ABL1, non-phosphorylated (ABL1, Homo sapiens, UniProt P00519, F317I) | binding, competition with immobilised ligand | 100
Serine/threonine-protein kinase ULK2 (ULK2, Homo sapiens, UniProt Q8IYT8) | binding, competition with immobilised ligand | 100
Tyrosine-protein kinase FRK (FRK, Homo sapiens, UniProt P42685) | cell-free assay, competition with immobilised ligand | 100
Casein kinase I isoform gamma-3 (CSNK1G3, Homo sapiens, UniProt Q9Y6M4) | cell-free assay, competition with immobilised ligand | 100
Serine/threonine-protein kinase Nek2 (NEK2, Homo sapiens, UniProt P51955) | binding, competition with immobilised ligand | 84
Ribosomal protein S6 kinase alpha-4, N-terminal kinase domain (RPS6KA4, Homo sapiens, UniProt O75676) | binding, competition with immobilised ligand | 100
Tyrosine-protein kinase Lck (LCK, Homo sapiens, UniProt P06239) | binding, competition with immobilised ligand | 95
Tyrosine-protein kinase Fgr (FGR, Homo sapiens, UniProt P09769) | cell-free assay, competition with immobilised ligand | 100
Serine/threonine-protein kinase MRCK gamma (CDC42BPG, Homo sapiens, UniProt Q6DT37) | competition binding | 80
Cyclin-dependent kinase 4, with cyclin D1 (CDK4, Homo sapiens, UniProt P11802) | binding, competition with immobilised ligand | 100
Tyrosine-protein kinase JAK1, JH1 (JAK1, Homo sapiens, UniProt P23458) | binding, competition with immobilised ligand | 71

Study 4 — read-out: enzyme activity; action: inhibitor; concentration: 0.5 µM; reference: control
SMILES: O=c1c2ccccc2[nH]c(=S)n1CCN1CCC(=C(c2ccc(F)cc2)c2ccc(F)cc2)CC1
target | remaining activity [%]
Casein kinase I isoform gamma-3 (CSNK1G3, Homo sapiens, UniProt Q9Y6M4) | 97.1
Serine/threonine-protein kinase Nek1 (NEK1, Homo sapiens, UniProt Q96PY6) | 109
Activin receptor type-1B (ACVR1B, Homo sapiens, UniProt P36896) | 103
Mitogen-activated protein kinase kinase kinase 5 (MAP3K5, Homo sapiens, UniProt Q99683) | 98.1
Serine/threonine-protein kinase TAO2 (TAOK2, Homo sapiens, UniProt Q9UL54) | 109
Serine/threonine-protein kinase Nek6 (NEK6, Homo sapiens, UniProt Q9HC98) | 96.2
Tyrosine-protein kinase JAK3 (JAK3, Homo sapiens, UniProt P52333) | 104
Rhodopsin kinase GRK7 (GRK7, Homo sapiens, UniProt Q8WTQ7) | 111
Mitogen-activated protein kinase kinase kinase 14 (MAP3K14, Homo sapiens, UniProt Q99558) | 75.7
Fibroblast growth factor receptor 3 (FGFR3, Homo sapiens, UniProt P22607) | 99.3
Tyrosine-protein kinase Mer (MERTK, Homo sapiens, UniProt Q12866) | 97
Tyrosine-protein kinase ABL2 (ABL2, Homo sapiens, UniProt P42684) | 103
Mitogen-activated protein kinase 3 (MAPK3, Homo sapiens, UniProt P27361) | 105

Some of these lines once more (study 3):
target | test | remaining binding [%]
Ribosomal protein S6 kinase alpha-4, N-terminal kinase domain (RPS6KA4, Homo sapiens, UniProt O75676) | binding, competition with immobilised ligand | 100
Serine/threonine-protein kinase RIO3 (RIOK3, Homo sapiens, UniProt O14730) | binding, competition with immobilised ligand | 99
Leucine-rich repeat serine/threonine-protein kinase 2 (LRRK2, Homo sapiens, UniProt Q5S007) | binding, competition with immobilised ligand | 97
Serine/threonine-protein kinase MRCK gamma (CDC42BPG, Homo sapiens, UniProt Q6DT37) | competition binding | 80
